Results of several laboratories.
Numbered parts are unrelated; each lists some results of a single study.

Sample 1
Target: Interferon regulatory factor 7, full length, phosphomimetic (IRF7, Homo sapiens, UniProt Q92985, residues 1-503, S101K/S471D/S472D/S475D/S476D/S477D/S483D/S484D/S487D)
Method: protein-binding microarray
Form: double-stranded DNA, one strand shown
Matrix: in vitro
Tested at: 250 nM
Notes: 60-bp whole probe
With: salmon DNA 0.4 mg/ml
Relative to: random background probes
Reading: higher = stronger binding
Residues (chain): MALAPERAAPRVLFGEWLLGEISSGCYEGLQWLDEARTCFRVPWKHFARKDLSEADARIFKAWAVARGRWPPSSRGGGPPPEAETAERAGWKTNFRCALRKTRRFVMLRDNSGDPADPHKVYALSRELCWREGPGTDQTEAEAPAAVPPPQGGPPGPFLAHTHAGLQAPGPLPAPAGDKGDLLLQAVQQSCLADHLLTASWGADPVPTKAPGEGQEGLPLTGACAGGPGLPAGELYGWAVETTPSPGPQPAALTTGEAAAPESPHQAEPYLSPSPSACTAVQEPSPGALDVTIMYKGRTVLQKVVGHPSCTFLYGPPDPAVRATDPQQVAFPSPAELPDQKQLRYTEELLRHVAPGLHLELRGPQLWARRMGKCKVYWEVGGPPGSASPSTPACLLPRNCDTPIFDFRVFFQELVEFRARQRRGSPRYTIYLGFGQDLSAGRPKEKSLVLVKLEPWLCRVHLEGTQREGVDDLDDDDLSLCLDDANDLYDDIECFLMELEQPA
Strand | log fluorescence [z-score]
GCCTAGCACGACGAACTGCTTTTCCTGACGTGCTAGGTCTTGATTCGCTTGACGCTGCTG | 0.0848
GCCTAGCACGACGTTTCCGGTTTCGGGACGTGCTAGGTCTTGATTCGCTTGACGCTGCTG | 6.86
GCCTAGCACTTAGAACAGGGGACTGGATTAGTGCTAGTCTTGATTCGCTTGACGCTGCTG | -0.291

Sample 2
Target: RING finger protein unkempt homolog, zinc fingers 1-6, GST-SBP tag (UNK, Homo sapiens, UniProt Q9C0B0, residues 30-357)
Method: RNA Bind-n-Seq
Form: RNA
Matrix: in vitro
Tested at: not given
Notes: RNA with constant flanks, human and mouse sites, ends assumed
Relative to: input RNA pool
Reading: higher = stronger binding
Residues (chain): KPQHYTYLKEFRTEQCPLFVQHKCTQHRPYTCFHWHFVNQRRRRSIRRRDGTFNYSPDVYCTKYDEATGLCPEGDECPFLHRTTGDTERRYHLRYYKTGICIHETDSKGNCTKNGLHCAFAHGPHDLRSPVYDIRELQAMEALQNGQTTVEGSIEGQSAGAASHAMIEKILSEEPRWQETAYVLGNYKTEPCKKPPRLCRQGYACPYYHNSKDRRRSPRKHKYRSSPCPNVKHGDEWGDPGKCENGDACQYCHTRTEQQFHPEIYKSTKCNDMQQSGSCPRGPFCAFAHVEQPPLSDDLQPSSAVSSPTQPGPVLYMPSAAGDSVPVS
Strand | bound/input enrichment
GGGAGUUCUACAGUCCGACGAUCGAGACUAAUGUUUAACUUUGAGAUACGUUUUCUGAGAGUUGCUAACCGGUUGGAGAUGAACUUAGAGAAUAGGGUUCACCUUUUUCGUCUGUCAGCGGGUUAUCGAGUGCCCAGUGGUGUCAACAGAGGAUUGAGCAUCA | 0.258 ratio
GGGAGUUCUACAGUCCGACGAUCGGGAAGCUCCCUGGCAGCUGUGUAGUCGCGUGGACACACUGUUCUCACAGACUACAUGCAUACUGUGCUACCUUUGAUGUUCGCUUUCUAAAAAAAGGACUAUGCAGUUUUAUUGUACAGCAACAGAGGAUUGAGCAUCA | 0.0874 ratio
GGGAGUUCUACAGUCCGACGAUCACUGUAAGAGUGUGUGUGUUGCAUGUUUACAUAAAACAAUUUCAUUCUGAAGGAUUAUUUCAACUAUGUUUAUAUGUAAUACCUAACAGGUUGUAAAUAGUGUAUACUAUUGAUUUUUAACAACAGAGGAUUGAGCAUCA | 0.322 ratio

Sample 3
Target: Histone acetyltransferase KAT6A, winged helix 1, GST fusion (KAT6A, Homo sapiens, UniProt Q92794, residues 1-85)
Method: protein binding microarray
Form: double-stranded DNA, one strand shown
Matrix: in vitro
Tested at: not given
Notes: 8-mer, flanks averaged, mean of 2 arrays, mostly near background
Relative to: not given
Reading: higher = stronger binding
Target sequence (chain): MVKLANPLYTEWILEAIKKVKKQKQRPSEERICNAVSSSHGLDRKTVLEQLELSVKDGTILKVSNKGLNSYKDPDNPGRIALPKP
Strand | E-score
AACGGCAT | 0.352
ACTTTGAC | -0.147
CCGGCTCC | 0.21
GCTTAATA | 0.0117
GTTGAGGA | -0.129

Mixed results
Substance | target | assay | test system | conditions | how to read | quantity | result
PhoQ, residues 284 288 289 292 302 303 SLSVQF | PhoP, residues 12 14 15 18 19 STHWV (Escherichia coli, UniProt P23836) | Sort-seq, refers to: YFP reporter | E. coli | PhoQ-PhoP variant library, with: 10 µM Mg2+ | relative to: high Mg2+ state, higher = stronger signaling | fold induction | 18.8

Excerpt of the above (sample 3):
Strand | E-score
GCTTAATA | 0.0117
GTTGAGGA | -0.129
